Measurements of several laboratories.
Each line is one published result; not all experiments were run side by side. ± marks the error that the study gave.
Genome polyprotein NS2B-NS3 protease: Genome polyprotein, NS2B-NS3 protease (ZIKV, UniProt A0A024B7W1)
blaNDM-1: Metallo-beta-lactamase type 2 (blaNDM-1, Klebsiella pneumoniae, UniProt C7C422)
Sequence of UniProt C7C422 (whole entry, looked up): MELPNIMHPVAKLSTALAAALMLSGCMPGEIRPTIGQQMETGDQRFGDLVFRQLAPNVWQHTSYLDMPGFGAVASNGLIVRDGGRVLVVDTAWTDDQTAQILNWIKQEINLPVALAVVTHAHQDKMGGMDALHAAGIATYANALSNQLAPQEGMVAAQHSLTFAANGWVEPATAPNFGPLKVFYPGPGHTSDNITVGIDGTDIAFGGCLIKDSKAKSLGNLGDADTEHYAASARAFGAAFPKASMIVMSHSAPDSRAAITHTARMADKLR
MCA2: Metacaspase-2 (MCA2, Trypanosoma brucei brucei, UniProt Q585F3)
Sequence of UniProt Q585F3 (whole entry, looked up): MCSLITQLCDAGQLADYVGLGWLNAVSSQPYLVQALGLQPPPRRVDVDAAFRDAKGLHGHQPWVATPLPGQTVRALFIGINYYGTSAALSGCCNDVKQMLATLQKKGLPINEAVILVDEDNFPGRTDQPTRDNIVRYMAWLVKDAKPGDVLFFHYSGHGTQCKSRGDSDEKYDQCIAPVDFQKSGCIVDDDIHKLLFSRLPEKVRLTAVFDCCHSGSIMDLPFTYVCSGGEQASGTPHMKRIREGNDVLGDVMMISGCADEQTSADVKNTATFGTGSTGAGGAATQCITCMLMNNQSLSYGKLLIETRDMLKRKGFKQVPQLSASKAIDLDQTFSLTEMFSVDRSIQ
Sequence of UniProt Q16549 (whole entry, looked up): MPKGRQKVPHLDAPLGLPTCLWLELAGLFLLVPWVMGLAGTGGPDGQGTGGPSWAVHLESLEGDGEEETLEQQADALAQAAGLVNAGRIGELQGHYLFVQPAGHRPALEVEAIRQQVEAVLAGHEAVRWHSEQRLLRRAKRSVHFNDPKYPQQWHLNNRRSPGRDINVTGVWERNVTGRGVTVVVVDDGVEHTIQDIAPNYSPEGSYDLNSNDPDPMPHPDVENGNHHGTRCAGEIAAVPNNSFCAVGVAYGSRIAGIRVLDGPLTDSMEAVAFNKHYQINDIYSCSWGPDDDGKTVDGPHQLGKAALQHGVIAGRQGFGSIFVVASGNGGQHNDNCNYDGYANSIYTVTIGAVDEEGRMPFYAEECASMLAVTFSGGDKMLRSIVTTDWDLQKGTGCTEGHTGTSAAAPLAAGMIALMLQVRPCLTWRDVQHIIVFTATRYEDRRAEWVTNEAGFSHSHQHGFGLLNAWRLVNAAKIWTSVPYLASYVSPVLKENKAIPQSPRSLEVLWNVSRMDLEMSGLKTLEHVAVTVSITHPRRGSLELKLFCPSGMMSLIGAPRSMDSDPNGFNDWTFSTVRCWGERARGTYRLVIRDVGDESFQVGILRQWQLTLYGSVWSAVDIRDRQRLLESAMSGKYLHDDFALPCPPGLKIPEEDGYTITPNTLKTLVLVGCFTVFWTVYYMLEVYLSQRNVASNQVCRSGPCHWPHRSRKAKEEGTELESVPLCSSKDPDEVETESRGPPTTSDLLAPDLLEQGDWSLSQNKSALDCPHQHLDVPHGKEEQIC
Sequence of UniProt P15090 (whole entry, looked up): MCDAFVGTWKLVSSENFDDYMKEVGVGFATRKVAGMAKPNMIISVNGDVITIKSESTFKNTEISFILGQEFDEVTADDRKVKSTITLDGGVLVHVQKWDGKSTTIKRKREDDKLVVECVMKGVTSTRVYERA
Sequence of UniProt Q13451 (whole entry, looked up): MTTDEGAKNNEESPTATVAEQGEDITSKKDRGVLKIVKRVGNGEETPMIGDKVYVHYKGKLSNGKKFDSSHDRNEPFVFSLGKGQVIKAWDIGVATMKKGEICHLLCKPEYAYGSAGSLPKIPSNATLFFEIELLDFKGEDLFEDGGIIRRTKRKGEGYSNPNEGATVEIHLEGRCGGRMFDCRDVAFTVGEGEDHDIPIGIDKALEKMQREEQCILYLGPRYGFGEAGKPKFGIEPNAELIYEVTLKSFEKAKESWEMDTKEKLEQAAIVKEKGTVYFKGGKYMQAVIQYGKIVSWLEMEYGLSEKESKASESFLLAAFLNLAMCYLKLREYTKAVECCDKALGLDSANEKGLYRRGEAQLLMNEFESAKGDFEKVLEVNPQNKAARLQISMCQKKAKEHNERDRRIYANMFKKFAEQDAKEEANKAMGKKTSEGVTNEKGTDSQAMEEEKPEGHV
Sequence of UniProt Q60492 (whole entry, looked up): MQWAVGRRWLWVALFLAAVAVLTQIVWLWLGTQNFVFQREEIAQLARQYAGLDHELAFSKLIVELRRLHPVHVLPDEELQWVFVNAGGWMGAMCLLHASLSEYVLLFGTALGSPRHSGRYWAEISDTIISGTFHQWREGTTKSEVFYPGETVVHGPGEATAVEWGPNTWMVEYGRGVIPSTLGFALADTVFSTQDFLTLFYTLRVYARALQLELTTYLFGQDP
Sequence of UniProt P33535 (whole entry, looked up): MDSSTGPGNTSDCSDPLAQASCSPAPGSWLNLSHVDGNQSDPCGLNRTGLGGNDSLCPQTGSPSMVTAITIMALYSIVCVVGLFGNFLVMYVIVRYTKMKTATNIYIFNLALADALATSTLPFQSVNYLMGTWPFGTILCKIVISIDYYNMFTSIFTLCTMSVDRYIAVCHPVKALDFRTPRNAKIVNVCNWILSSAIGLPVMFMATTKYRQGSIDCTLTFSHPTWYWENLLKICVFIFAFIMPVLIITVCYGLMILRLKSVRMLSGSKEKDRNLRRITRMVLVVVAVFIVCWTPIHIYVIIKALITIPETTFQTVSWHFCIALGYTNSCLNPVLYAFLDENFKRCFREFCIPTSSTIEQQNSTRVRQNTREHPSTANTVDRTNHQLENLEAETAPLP
Sequence of UniProt Q6DWJ6 (whole entry, looked up): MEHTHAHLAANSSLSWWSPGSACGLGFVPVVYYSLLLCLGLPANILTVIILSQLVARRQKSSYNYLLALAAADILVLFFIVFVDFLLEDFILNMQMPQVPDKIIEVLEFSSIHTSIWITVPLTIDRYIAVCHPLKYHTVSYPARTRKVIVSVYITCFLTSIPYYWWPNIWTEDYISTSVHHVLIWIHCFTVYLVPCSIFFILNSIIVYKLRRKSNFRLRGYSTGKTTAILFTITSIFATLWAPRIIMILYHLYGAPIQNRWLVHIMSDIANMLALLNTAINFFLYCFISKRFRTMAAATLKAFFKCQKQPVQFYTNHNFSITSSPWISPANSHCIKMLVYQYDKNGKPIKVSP
Sequence of UniProt Q8IY84 (whole entry, looked up): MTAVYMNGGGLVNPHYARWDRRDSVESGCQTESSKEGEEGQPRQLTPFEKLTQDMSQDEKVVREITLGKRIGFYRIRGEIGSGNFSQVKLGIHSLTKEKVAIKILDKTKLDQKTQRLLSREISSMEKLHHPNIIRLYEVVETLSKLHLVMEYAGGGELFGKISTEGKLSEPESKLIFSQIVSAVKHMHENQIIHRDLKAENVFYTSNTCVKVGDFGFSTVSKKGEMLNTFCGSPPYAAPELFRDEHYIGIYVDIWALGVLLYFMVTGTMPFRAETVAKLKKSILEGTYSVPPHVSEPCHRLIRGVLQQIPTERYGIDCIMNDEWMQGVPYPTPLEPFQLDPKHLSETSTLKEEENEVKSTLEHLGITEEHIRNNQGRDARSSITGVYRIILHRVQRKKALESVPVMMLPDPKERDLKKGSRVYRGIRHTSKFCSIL
Sequence of UniProt P51955 (whole entry, looked up): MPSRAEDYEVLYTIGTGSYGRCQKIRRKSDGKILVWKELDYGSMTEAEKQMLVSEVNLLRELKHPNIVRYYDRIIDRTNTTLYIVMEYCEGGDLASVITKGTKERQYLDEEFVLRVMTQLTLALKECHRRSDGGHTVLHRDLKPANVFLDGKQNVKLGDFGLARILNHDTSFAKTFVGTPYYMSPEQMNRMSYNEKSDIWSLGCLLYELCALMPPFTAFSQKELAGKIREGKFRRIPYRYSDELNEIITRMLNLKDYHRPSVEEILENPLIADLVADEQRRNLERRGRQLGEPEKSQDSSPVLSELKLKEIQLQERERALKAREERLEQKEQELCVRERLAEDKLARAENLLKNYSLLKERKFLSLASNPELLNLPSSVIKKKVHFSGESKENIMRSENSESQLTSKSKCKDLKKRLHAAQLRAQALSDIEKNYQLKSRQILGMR
Sequence of UniProt P42336 (whole entry, looked up): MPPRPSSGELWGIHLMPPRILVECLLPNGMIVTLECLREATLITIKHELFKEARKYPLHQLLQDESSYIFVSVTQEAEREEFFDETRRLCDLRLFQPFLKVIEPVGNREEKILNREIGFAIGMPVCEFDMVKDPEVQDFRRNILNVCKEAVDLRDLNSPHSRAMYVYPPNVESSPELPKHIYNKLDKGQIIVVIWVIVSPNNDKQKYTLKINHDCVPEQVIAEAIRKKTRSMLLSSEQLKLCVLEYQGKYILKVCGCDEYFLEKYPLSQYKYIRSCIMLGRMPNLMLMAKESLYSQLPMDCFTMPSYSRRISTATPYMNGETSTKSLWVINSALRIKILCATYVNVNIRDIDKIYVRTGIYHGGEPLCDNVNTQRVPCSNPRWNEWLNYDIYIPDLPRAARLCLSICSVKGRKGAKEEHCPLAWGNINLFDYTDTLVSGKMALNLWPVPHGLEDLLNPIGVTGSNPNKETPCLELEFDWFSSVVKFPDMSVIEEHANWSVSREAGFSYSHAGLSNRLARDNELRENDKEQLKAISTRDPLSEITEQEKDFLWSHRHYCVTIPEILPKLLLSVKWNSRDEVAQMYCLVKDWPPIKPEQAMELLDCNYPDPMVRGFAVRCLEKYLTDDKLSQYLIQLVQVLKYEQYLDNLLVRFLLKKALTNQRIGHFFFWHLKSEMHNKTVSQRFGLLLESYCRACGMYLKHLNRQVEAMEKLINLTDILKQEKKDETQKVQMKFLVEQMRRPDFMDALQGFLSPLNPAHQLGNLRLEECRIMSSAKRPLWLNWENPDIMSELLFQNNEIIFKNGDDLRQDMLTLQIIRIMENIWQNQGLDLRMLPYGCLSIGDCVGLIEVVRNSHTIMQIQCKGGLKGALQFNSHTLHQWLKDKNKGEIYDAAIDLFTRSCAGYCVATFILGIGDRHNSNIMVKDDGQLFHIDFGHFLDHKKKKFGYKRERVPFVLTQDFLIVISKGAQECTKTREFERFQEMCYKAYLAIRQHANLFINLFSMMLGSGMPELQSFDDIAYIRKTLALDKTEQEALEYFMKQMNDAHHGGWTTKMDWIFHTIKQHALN

O=C1NC2(CC2)COc2ncc(F)cc2[C@H]2COCCN2c2ccn3ncc1c3n2  serum sodium (Sprague-Dawley rat, male, serum; oral, 5 mg/kg/day, end of treatment, 4-week subacute toxicity): 145 ± 1 mmol/L
CC(=O)N[C@@H](CCCNC(=N)N)C(=O)N[C@H](C(=O)N[C@@H](CCCCN)C(=O)N[C@@H](CCCNC(=N)N)C(N)=O)C(C)C  Ki (Proprotein convertase subtilisin/kexin type 7 (Homo sapiens, UniProt Q16549); enzyme activity, inhibitor): 4300 nM
CC(C)C[C@H](NC(=O)[C@H](CCCCN)NC(=O)[C@H](CCCCN)NC(=O)Cc1cccc(CNC(=O)[C@@H](C)NC(=N)N)c1)C(N)=O  Ki (Genome polyprotein NS2B-NS3 protease; inhibitor; Zika virus): 275 ± 7 nM
Cc1cc(C(=O)Nc2nc3cccc(C)c3n2[C@H]2CCCCN(C(=O)/C=C/CN(C)C)C2)ccn1  cells in G1 phase (Trypanosoma brucei; propidium iodide flow cytometry; bloodstream form; concentration not given, 24 h): 35.2%
CS(C)(=O)=Nc1ccc(-c2ccc(-c3nc4cc(O[C@@H]5CO[C@H]6[C@@H]5OC[C@H]6O)[nH]c4cc3F)cc2)cc1  inhibition (Serine/threonine-protein kinase Nek2 (NEK2, Homo sapiens, UniProt P51955); enzyme activity, inhibitor; 10 µM): -5%
CC(C)C[C@@H]1NC(=O)[C@@H](CCCNC(=N)N)NC(=O)[C@@H]([C@H](C)O)NC(=O)[C@H](CCC(=O)O)NC(=O)[C@@H]2CCCN2C(=O)[C@H](CC(C)C)NC(=O)[C@@H]2CCCN2C(=O)[C@@H](CS)NC1=O  Ki (blaNDM-1; enzyme activity, inhibitor; together with: nitrocefin 1.5 µM): 45000 nM
CC(C)(COP(=O)(O)OP(=O)(O)OC[C@H]1O[C@@H](n2cnc3c(N)ncnc32)[C@H](O)[C@@H]1OP(=O)(O)O)[C@@H](O)C(=O)NCCC(=O)NCCSCC(=O)N[C@@H](CO)C(=O)NCC(=O)N[C@@H](CCCNC(=N)N)C(=O)N[C@@H](CCCCN)C(=O)N[C@@H](CCCCN)C(=O)N[C@@H](CCCNC(=N)N)C(=O)N[C@@H](CCCNC(=N)N)C(=O)N[C@@H](CCC(N)=O)C(=O)N[C@@H](CCCNC(=N)N)C(=O)N[C@@H](CCCNC(=N)N)C(=O)N[C@@H](CCCNC(=N)N)C(N)=O  Ki (N-alpha-acetyltransferase 40 (NAA40, Homo sapiens, UniProt Q86UY6); enzyme activity, inhibitor, fluorescence): 169 nM
Cc1cc(O)cc(C)c1C[C@H](N)C(=O)N[C@H](CCCNC(=N)N)C(=O)N[C@@H](Cc1ccccc1)C(=O)N(C)CC(=O)N(C)Cc1cc(C(F)(F)F)cc(C(F)(F)F)c1  Ki (Delta-type opioid receptor (OPRD1, Homo sapiens, UniProt P41143, L300A)): 1.21 ± 0.42 nM
CC(C)C[C@@H]1NC(=O)[C@@H]2CCCN2C(=O)[C@@H](CS)NC(=O)[C@H](Cc2ccc(O)cc2)NC(=O)[C@@H](CCCNC(=N)N)NC(=O)[C@@H]([C@H](C)O)NC(=O)[C@H](CCC(=O)O)NC(=O)[C@@H]2CCCN2C1=O  Ki (blaNDM-1; enzyme activity, inhibitor; together with: nitrocefin 1.5 µM): 16500 nM
CC[C@H](C)[C@H](NC(=O)[C@H](CCCNC(=N)N)NC(=O)[C@H](CCCNC(=N)N)NC(=O)[C@H](CC(C)C)NC(=O)[C@H](Cc1ccccc1)NC(=O)CNC(=O)CNC(=O)[C@@H](N)Cc1ccc(O)cc1)C(=O)N[C@@H](CCCNC(=N)N)C(=O)N1CCC[C@H]1C(=O)N[C@@H](CCCCN)C(=O)N[C@@H](CC(C)C)C(=O)N[C@@H](CCCCN)C(=O)O  Ki (Probable G-protein coupled receptor 139 (GPR139, Homo sapiens, UniProt Q6DWJ6); ligand displacement, radioligand; cell membranes): 56.6 nM
C[C@H](NC(=O)[C@H](CCCCN)NC(=O)c1ccccc1N)C(=O)NCC(=O)N[C@@H](CO)C(=O)N[C@@H](CO)C(=O)N[C@@H](C)C(=O)N[C@@H](CCC(N)=O)C(=O)NCCNc1ccc([N+](=O)[O-])cc1[N+](=O)[O-]  Ki (MCA2; enzyme activity, competitive inhibitor; Trypanosoma brucei; together with: Z-FR-AMC substrate): 17000 nM
CC[C@H](C)[C@H](NC(=O)[C@H](CO)NC(=O)[C@H](Cc1ccc(O)cc1)NC(=O)[C@H](Cc1ccc(O)cc1)NC(=O)[C@H](CC(N)=O)NC(=O)CNC(=O)[C@H](CO)NC(=O)[C@H](Cc1ccc(O)cc1)NC(=O)[C@H](CO)NC(=O)[C@H](CO)NC(=O)[C@H](CC(N)=O)NC(=O)COCCOCCNC(=O)CN1CCN(CC(=O)O)CCN(CC(=O)O)CCN(CC(=O)O)CC1)C(=O)N[C@@H](CC(C)C)C(N)=O [copper-64 labelled]  tumour uptake (dynamic PET; mouse, tamoxifen-induced PDAC, blood; intravenous, 0.1 µg/mouse, 6.5 min): 9.64 %ID/mL
COc1ccccc1-c1n[nH]c2nc(N[C@H]3CC[C@H](NS(=O)(=O)CC(C)C)CC3)ncc12  relative abundance (bead binding, competition bead pull-down, measured: LINJ.26.2240; Leishmania donovani extract; 10 µM; reference: vehicle): 0.98
COc1cc2c(cc1O)C(CCc1ccc(Cl)cc1)N(C)CC2 (centres unmarked)  Ki (Sigma non-opioid intracellular receptor 1 (SIGMAR1, Cavia porcellus, UniProt Q60492); cell-free assay, radioligand): 370 nM
O=C(O)C(F)(OC(F)(F)C(F)(F)C(F)(F)F)C(F)(F)F (centres unmarked)  Ki (Fatty acid-binding protein, adipocyte (FABP4, Homo sapiens, UniProt P15090); ligand displacement, fluorescence): 19500 nM
NC(=O)C[C@H]1NC(=O)[C@@H](CCC(=O)O)NC(=O)[C@H](CCC(=O)O)NC(=O)[C@@H]2CCCN2C(=O)[C@H](C(c2ccccc2)c2ccccc2)NC(=O)[C@@H]2CCCN2C(=O)[C@H]2CCCN2C(=O)[C@H](Cc2c[nH]cn2)NC1=O  Ki (blaNDM-1; enzyme activity, inhibitor; together with: nitrocefin 1.5 µM): 242000 nM
C[C@H](NC(=O)[C@H](CCCCN)NC(=O)c1ccccc1N)C(=O)N[C@@H](CCCNC(=N)N)C(=O)N[C@@H](CO)C(=O)N[C@@H](Cc1ccc(O)cc1)C(=O)N[C@@H](C)C(=O)N[C@@H](CCC(N)=O)C(=O)NCCNc1ccc([N+](=O)[O-])cc1[N+](=O)[O-]  Ki (MCA2; enzyme activity, competitive inhibitor; Trypanosoma brucei; together with: Z-FR-AMC substrate): 6700 nM
Cc1cc(O)cc(C)c1C[C@H](N)C(=O)N[C@@H]1C/C=C\CC[C@@H](C(N)=O)NC(=O)[C@H](Cc2ccccc2)NC(=O)[C@H](Cc2ccccc2)NC1=O  Ki (Mu-type opioid receptor (Oprm1, Rattus norvegicus, UniProt P33535); ligand displacement, radioligand; cell membranes): 0.528 nM
C[C@H](NC(=O)[C@H](CCCCN)NC(=O)c1ccccc1N)C(=O)N[C@@H](Cc1ccccc1)C(=O)N[C@@H](CO)C(=O)N[C@@H](CO)C(=O)N[C@@H](C)C(=O)N[C@@H](CCC(N)=O)C(=O)NCCNc1ccc([N+](=O)[O-])cc1[N+](=O)[O-]  Ki (MCA2; enzyme activity, competitive inhibitor; Trypanosoma brucei; together with: Z-FR-AMC substrate): 4200 nM
COc1ccc(CC[C@H]2OC(=O)[C@@H]3CCCCN3C(=O)C(=O)C(C)(C)COC(=O)/C=C/CCN(C)C(=O)[C@H](CC(C)C)N(C)C(=O)[C@@H]3CCCN3C(=O)[C@H](Cc3ccccc3)N(C)C(=O)[C@H](c3ccccc3)NC(=O)CCC(=O)Nc3cccc2c3)cc1OC  Ki (Peptidyl-prolyl cis-trans isomerase FKBP5 (FKBP5, Homo sapiens, UniProt Q13451); enzyme activity, inhibitor): 184 nM
CSCC[C@@H]1NC(=O)[C@@H](CCCNC(=N)N)NC(=O)[C@H](CC(=O)O)NC(=O)[C@H]2CCCN2C(=O)[C@@H]([C@H](C)O)NC(=O)[C@H](C(C)C)NC(=O)[C@@H]2CCCN2C(=O)[C@@H](CS)NC1=O  Ki (blaNDM-1; enzyme activity, inhibitor; together with: nitrocefin 1.5 µM): 22600 nM
CN(C)[C@H]1C[C@@]23CC[C@@]4(O2)C(=CC[C@]2(C)[C@@H](c5ccc6ccncc6c5)CC[C@H]24)C=C3[C@@H](O)[C@@H]1O  inhibition (Phosphorylase b kinase gamma catalytic chain, skeletal muscle/heart isoform (PHKG1, Homo sapiens, UniProt Q16816); probe labelling, inhibitor, KiNativ ATP probe MS; native lysate; 0.1 µM): 8.9%
CCCC[C@@H]1NC(=O)[C@@H](CCC(N)=O)NC(=O)[C@H]2CCCN2C(=O)[C@H](Cc2c[nH]c3ccccc23)NC(=O)[C@@H]2C[C@@H](O)CN2C(=O)[C@H](Cc2ccccc2CN)NC(=O)[C@@H]2CCCN2C(=O)[C@@H](CS)NC1=O  Ki (blaNDM-1; enzyme activity, inhibitor; together with: nitrocefin 1.5 µM): 24500 nM
CC(C)[C@H]1NC(=O)C[C@H]2/C=C/CCSSC[C@@H](NC1=O)C(=O)N[C@H](Cc1cccc3ccccc13)C(=O)NCC(=O)O2  inhibition (Serine/threonine-protein kinase NIM1 (NIM1K, Homo sapiens, UniProt Q8IY84); enzyme activity, inhibitor; 10 µM): -10.8%
COc1ccccc1-c1n[nH]c2nc(NC3CCN(C(=O)Cc4ccc(F)cc4F)CC3)ncc12  relative abundance (bead binding, competition bead pull-down, measured: LINJ.32.3110; Leishmania donovani extract; 10 µM; reference: vehicle): 0.82
CC(C)C[C@H](NC(=O)[C@H](CCCCN)NC(=O)[C@H](CCCCN)NC(=O)Cc1cccc(CNC(=O)[C@H](C)NC(=N)N)c1)B(O)O  Ki (Genome polyprotein NS2B-NS3 protease; inhibitor; Zika virus): 11.4 ± 0.6 nM
CCN(N=Cc1cnc2ccc(Br)cn12)S(=O)(=O)c1cc([N+](=O)[O-])ccc1C  Ki (Phosphatidylinositol 4,5-bisphosphate 3-kinase catalytic subunit alpha isoform (PIK3CA, Homo sapiens, UniProt P42336); enzyme activity, inhibitor; competitive model, together with: PI substrate): 6.9 ± 2.8 nM
COc1ccccc1N1CCN(CCCCN2CCCc3ccccc3C2=O)CC1  Ki (Alpha-1B adrenergic receptor (ADRA1B, Homo sapiens, UniProt P35368); ligand displacement, radioligand): 125 nM
CC(C)(C)C(=O)OCOP(=O)(OCOC(=O)C(C)(C)C)C1CCCN(O)C1=O (centres unmarked)  log LC50 (KM12): > -4 log M
C[C@H](NC(=O)[C@H](CCCCN)NC(=O)c1ccccc1N)C(=O)N[C@@H](CC(N)=O)C(=O)N[C@@H](CO)C(=O)N[C@@H](CO)C(=O)N[C@@H](C)C(=O)N[C@@H](CCC(N)=O)C(=O)NCCNc1ccc([N+](=O)[O-])cc1[N+](=O)[O-]  Ki (MCA2; enzyme activity, competitive inhibitor; Trypanosoma brucei; together with: Z-FR-AMC substrate): 6700 nM
CC[C@H](C)[C@H](NC(=O)[C@@H]1CCCN1C(=O)[C@H](CCC(=O)O)NC(=O)[C@H](CCSC)NC(=O)CNC(=O)[C@H](CC(N)=O)NC(=O)CNC(=O)CNC(=O)[C@H](CCC(=O)O)NC(=O)CNC(=O)[C@H](CCCNC(=N)N)NC(=O)[C@H](CCC(N)=O)NC(=O)[C@H](Cc1ccc(O)cc1)NC(=O)[C@H](CC(C)C)NC(=O)[C@H](CCCCN)NC(=O)[C@@H]1CCCN1C(=O)[C@H](CCC(N)=O)NC(=O)[C@H](C)NC(=O)[C@@H](NC(=O)[C@H](CCC(=O)O)NC(=O)[C@H](C)NC(=O)[C@H](CCC(=O)O)NC(=O)[C@@H](NC(=O)[C@@H]1CCCN1C(=O)[C@@H](N)CCCCN)C(C)C)C(C)C)C(=O)N1CCC[C@H]1C(=O)N[C@@H](CCC(=O)O)C(=O)N[C@@H](CC(=O)O)C(=O)N[C@H](C(=O)N[C@@H](CC(C)C)C(=O)N[C@@H](CC(N)=O)C(=O)N[C@@H](CCC(=O)O)C(=O)N[C@@H](C)C(=O)N[C@@H](CC(C)C)C(=O)N[C@@H](CC(N)=O)C(=O)N[C@@H](C)C(=O)O)C(C)C  Ki (Prothrombin (F2, Homo sapiens, UniProt P00734); enzyme activity, inhibitor, absorbance; pH 8): 0.0282 nM
O=C1NC(=O)c2c1c1cc(F)c[n+]3c1c1c2c2cc(O)ccc2[n]1[Ru-4]312([N]=C=S)[S+]3CC[S+]1CC[S+]2CC3 (centres unmarked)  remaining activity (Serine/threonine-protein kinase tousled-like 2 (TLK2, Homo sapiens, UniProt Q86UE8); enzyme activity; 100 nM, human enzyme, together with: 10 µM ATP; reference: untreated): 110%

Some of these lines once more:
C[C@H](NC(=O)[C@H](CCCCN)NC(=O)c1ccccc1N)C(=O)NCC(=O)N[C@@H](CO)C(=O)N[C@@H](CO)C(=O)N[C@@H](C)C(=O)N[C@@H](CCC(N)=O)C(=O)NCCNc1ccc([N+](=O)[O-])cc1[N+](=O)[O-]  Ki (MCA2; enzyme activity, competitive inhibitor; Trypanosoma brucei; together with: Z-FR-AMC substrate): 17000 nM
CC[C@H](C)[C@H](NC(=O)[C@H](CO)NC(=O)[C@H](Cc1ccc(O)cc1)NC(=O)[C@H](Cc1ccc(O)cc1)NC(=O)[C@H](CC(N)=O)NC(=O)CNC(=O)[C@H](CO)NC(=O)[C@H](Cc1ccc(O)cc1)NC(=O)[C@H](CO)NC(=O)[C@H](CO)NC(=O)[C@H](CC(N)=O)NC(=O)COCCOCCNC(=O)CN1CCN(CC(=O)O)CCN(CC(=O)O)CCN(CC(=O)O)CC1)C(=O)N[C@@H](CC(C)C)C(N)=O [copper-64 labelled]  tumour uptake (dynamic PET; mouse, tamoxifen-induced PDAC, blood; intravenous, 0.1 µg/mouse, 6.5 min): 9.64 %ID/mL
